Experimental data gathered from unrelated publications.
Numbered parts are unrelated; each lists some results of a single study. Changes are numbered by the printed parent chain.
Sequence of UniProt P41143 (whole entry, looked up): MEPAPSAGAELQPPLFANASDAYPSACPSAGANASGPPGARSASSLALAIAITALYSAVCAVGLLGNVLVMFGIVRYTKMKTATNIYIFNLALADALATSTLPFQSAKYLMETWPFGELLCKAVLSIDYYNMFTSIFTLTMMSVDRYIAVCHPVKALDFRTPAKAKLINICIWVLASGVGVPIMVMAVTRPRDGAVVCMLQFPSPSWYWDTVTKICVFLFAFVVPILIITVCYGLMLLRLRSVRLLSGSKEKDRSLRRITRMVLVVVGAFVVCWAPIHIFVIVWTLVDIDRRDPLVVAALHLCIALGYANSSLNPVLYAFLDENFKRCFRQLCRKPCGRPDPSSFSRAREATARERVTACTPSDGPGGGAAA

Set 1 — target: CCNA1, cyclin fold, Cln2 fusion (human); technique: yeast growth competition, sequencing; medium: yeast; setting: strong parent motif; relative to: not given; direction: higher = stronger binding; parent: viral docking peptide; TSVRRALFTGGSD
For `A6T`, “normalised enrichment score” read 0.33.
For `V3E`, “normalised enrichment score” read -0.0353.
`T9F` — result for “normalised enrichment score”: 0.745.
For `R5Q`, “normalised enrichment score” read 0.221.
`S2D`: “normalised enrichment score” 0.813.
Under “normalised enrichment score”, `S2R` is recorded as 1.19.
For `R5A L7A`, “normalised enrichment score” read 0.118.
For `S12K`, “normalised enrichment score” read 0.189.
For `R4V`, “normalised enrichment score” read -0.035.
Under “normalised enrichment score”, `S2H` is recorded as 1.28.
For `S12T`, “normalised enrichment score” read 0.901.
Under “normalised enrichment score”, `G11P` is recorded as 1.44.
For `L7Y`, “normalised enrichment score” read 0.409.
`R5D`: “normalised enrichment score” -0.264.
`A6W`: “normalised enrichment score” -0.532.
Under “normalised enrichment score”, `G11E` is recorded as 1.15.
Under “normalised enrichment score”, `G10H` is recorded as 0.76.
Under “normalised enrichment score”, `F8S` is recorded as 0.498.
For `R4Y`, “normalised enrichment score” read 0.357.
`G10A` — result for “normalised enrichment score”: 1.
For `S12F`, “normalised enrichment score” read 1.05.
`L7A`: “normalised enrichment score” 0.103.
Under “normalised enrichment score”, `G10Y` is recorded as 0.931.
`F8R` — result for “normalised enrichment score”: -0.15.
For `S12G`, “normalised enrichment score” read 0.854.

Set 2 — target: CEP164, C-terminal peptide (human); technique: DHFR complementation, deep sequencing; medium: yeast; relative to: wild type; direction: higher = weaker binding
Setting: single substitutions, model-inferred values
Parent: PDZK1, PDZ domain 2 (human); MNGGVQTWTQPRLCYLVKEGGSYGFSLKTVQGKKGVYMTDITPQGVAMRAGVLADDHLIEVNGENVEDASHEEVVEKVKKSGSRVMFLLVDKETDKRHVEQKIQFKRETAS; partner HNRVKVYRF
`Q6T` — result for “binding free energy change”: 0.00677 kcal/mol.
For `R84M`, “binding free energy change” read 0.144 kcal/mol.
Under “binding free energy change”, `K92E` is recorded as -0.034 kcal/mol.
Under “binding free energy change”, `L89D` is recorded as 1.63 kcal/mol.
Under “binding free energy change”, `S111Q` is recorded as -0.0904 kcal/mol.
Under “binding free energy change”, `E73Y` is recorded as -0.214 kcal/mol.
`G35R`: “binding free energy change” 0.221 kcal/mol.
Under “binding free energy change”, `Q44F` is recorded as 0.0269 kcal/mol.

Set 3 — technique: protein-binding microarray; molecule type: hairpin DNA; medium: in vitro; tested at: not given; relative to: not given; direction: higher = stronger binding
Target: Runt-related transcription factor 3, Runt domain (RUNX3, Homo sapiens, UniProt Q13761, residues 53-186)
Sequence of UniProt Q13761 (53-186, looked up): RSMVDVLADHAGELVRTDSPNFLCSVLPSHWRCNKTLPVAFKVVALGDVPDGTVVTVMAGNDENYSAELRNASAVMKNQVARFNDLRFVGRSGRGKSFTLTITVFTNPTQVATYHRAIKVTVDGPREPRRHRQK
Setting: whole hairpin DNA, median over replicate spots
The median fluorescence of `GAGGCCGGTCGCGGTTGGCCTCCTGGCCAACCGCGACCGGCCTCACACTC (5mC at 38)` is reported as 5860 a.u.
With `CTCAGTTCTGTGCGCTGGACTCCTGTCCAGCGCACAGAACTGAGACACTC (5mC at 31)` the median fluorescence was 3900 a.u.
`CTCAGCGCTGTGGGCTGGACTCCTGTCCAGCCCACAGCGCTGAGACACTC (5mC at 6)` has a median fluorescence of 4840 a.u.
`GAGGCCCAACCGCAACAGCCTCCTGGCTGTTGCGGTTGGGCCTCACACTC` has a median fluorescence of 9040 a.u.
With `GAGGCCTTTCGCGGTTGGCCTCCTGGCCAACCGCGAAAGGCCTCACACTC` the median fluorescence was 5940 a.u.
For `GAGGCCTGTCCGGGTTGGCCTCCTGGCCAACCCGGACAGGCCTCACACTC (5mC at 11 33)`, the median fluorescence was 5080 a.u.
`GAGGCCTGTCACGGTTGGCCTCCTGGCCAACCGTGACAGGCCTCACACTC` gave a median fluorescence of 5160 a.u.
With `GAGGCCTGGCGCGGTTGGCCTCCTGGCCAACCGCGCCAGGCCTCACACTC` the median fluorescence was 5780 a.u.

Set 4 — technique: protein-binding microarray; molecule type: double-stranded DNA, one strand shown; medium: in vitro; tested at: 0.8 µM; setting: whole 60-bp probe, no competitor; direction: higher = stronger binding
Target: Centromere-binding protein 1, full length, N-terminal tag (CBF1, Saccharomyces cerevisiae, UniProt P17106, residues 1-351)
Sequence of UniProt P17106 (whole entry, looked up): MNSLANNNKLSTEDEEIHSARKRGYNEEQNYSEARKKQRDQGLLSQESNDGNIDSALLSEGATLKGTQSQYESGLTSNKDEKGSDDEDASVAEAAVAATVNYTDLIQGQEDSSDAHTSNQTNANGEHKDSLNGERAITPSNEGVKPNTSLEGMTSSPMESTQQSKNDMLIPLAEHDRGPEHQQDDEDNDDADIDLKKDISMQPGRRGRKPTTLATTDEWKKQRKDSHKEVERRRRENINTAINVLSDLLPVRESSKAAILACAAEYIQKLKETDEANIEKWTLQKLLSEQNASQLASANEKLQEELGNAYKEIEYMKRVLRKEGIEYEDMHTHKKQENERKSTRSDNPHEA
For `CTACCTGAGATTCCCGACATCAGTAAGACATAGTTCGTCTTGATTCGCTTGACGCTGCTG`, the fluorescence intensity was 518 a.u.
The fluorescence intensity of `GAAAATCCTTTTGATGTTACCCCGCCTGTGGGCTAGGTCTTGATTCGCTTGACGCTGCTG` is reported as 479 a.u.
With `CTAAGCGTGTGCAGGTGATTTATTGATAAAGTCTTCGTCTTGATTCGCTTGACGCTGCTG` the fluorescence intensity was 1180 a.u.
With `GAATAGCGACCTCATCACCACCTAGACCCCTCGTAGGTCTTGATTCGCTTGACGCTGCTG` the fluorescence intensity was 517 a.u.
For `GAATTACAAACACATCACGGGCCACCGGAAAAATAGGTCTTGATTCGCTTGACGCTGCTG`, the fluorescence intensity was 853 a.u.
For `CTAATAACATAGGGACACGTTCAGGCAATTGTCTTCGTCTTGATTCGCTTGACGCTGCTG`, the fluorescence intensity was 538 a.u.
The fluorescence intensity of `TGTACGAAGCTATCTCTGATGACTATAGTAGTTAGGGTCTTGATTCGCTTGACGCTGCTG` is reported as 474 a.u.
`CTATAGTAGGAATATCACGTTTAACGATGCCCCTTCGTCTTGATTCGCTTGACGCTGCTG` has a fluorescence intensity of 767 a.u.

Other studies, line by line
O=C(O)[C@H]1[C@H](Cn2nnc3ccccc3c2=O)CC[C@@H]1C(=O)c1ccc(OCCC2CCOCC2)cc1 gave an inhibition of 1.43% (Delta-type opioid receptor (OPRD1, Homo sapiens, UniProt P41143); ligand displacement; 10 µM).
